Measurements gathered from unrelated publications.
Parts stem from different laboratories: compare values within a part only. Substitutions count along the parent as printed.

Series 1
Target: Centromere-binding protein 1, full length, N-terminal tag (CBF1, Saccharomyces cerevisiae, UniProt P17106, residues 1-351)
UniProt P17106, sequence (whole entry, looked up): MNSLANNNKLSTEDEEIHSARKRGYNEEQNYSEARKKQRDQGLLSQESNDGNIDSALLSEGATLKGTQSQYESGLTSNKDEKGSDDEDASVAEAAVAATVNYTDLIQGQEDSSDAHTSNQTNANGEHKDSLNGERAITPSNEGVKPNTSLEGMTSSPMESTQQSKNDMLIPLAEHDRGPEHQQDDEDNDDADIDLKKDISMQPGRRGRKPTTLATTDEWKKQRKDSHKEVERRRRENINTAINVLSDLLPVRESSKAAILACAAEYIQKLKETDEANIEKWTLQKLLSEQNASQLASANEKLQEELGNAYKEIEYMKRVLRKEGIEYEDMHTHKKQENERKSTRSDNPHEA
Technique: protein-binding microarray
Form: double-stranded DNA, one strand shown
Sample: in vitro
Concentration: 0.8 µM
Setting: whole 60-bp probe, no competitor
Reading: higher = stronger binding
The fluorescence intensity of `TGTACGAAGCTATGTCACCCGACTATAGTAGTTAGGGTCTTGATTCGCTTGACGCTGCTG` is reported as 602 a.u.
The fluorescence intensity of `CTAATCGGAAAATATCACGTTGTACGTAACAATTTCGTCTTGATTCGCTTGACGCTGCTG` is reported as 1120 a.u.
`CTAAACTTTCAACATCAGGCTCTTTTCGTTTTATTCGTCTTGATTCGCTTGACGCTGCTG` has a fluorescence intensity of 512 a.u.
`CCTAACTACTATAGGCATGTGGTATAGCTTCGTACAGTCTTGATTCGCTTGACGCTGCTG` gave a fluorescence intensity of 673 a.u.
`GAAGTCTTAATGAGTCACGGGAGGTCAAGATGCTAGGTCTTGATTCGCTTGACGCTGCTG` has a fluorescence intensity of 1600 a.u.
The fluorescence intensity of `CTAATGGGAATCCCCTACGTGGCACTTAGATACTTCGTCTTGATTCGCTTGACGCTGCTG` is reported as 498 a.u.
For `GAATATGTTTATTTTTACGTGGGTTATAAAGACTAGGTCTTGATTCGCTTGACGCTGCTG`, the fluorescence intensity was 523 a.u.
`CTAGAACACATATCTCACGCTGATAACACCCTATTCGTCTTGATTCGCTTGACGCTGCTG` gave a fluorescence intensity of 547 a.u.
`CTAACTCCGGCTCTTTACGTGCCACAATTATTATTCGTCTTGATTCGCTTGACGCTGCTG` has a fluorescence intensity of 538 a.u.
`GAACTACATATATTTCGTGCGCTTTCAAAAATATAGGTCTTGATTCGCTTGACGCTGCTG` has a fluorescence intensity of 496 a.u.

Series 2
Target: ABI1, truncated, D143A, DHFR fusion (Arabidopsis thaliana, UniProt P49597)
Technique: DHFR PCA, dose-response
Sample: yeast
Setting: Hill fit, not affinity, not high confidence
Together with: (+)-ABA, dose series
Reading: lower = more sensitive
Parent: PYL1, truncated, DHFR fusion (Arabidopsis thaliana, UniProt Q8VZS8); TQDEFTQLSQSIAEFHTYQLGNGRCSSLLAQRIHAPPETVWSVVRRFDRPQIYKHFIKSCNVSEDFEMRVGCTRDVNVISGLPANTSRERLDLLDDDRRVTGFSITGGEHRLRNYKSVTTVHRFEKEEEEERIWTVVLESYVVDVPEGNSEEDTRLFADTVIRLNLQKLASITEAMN
With `S80Y` the ABA EC50 was 182 µM.
With `F56K` the ABA EC50 was 4.61 µM.
`Q31D` has an ABA EC50 of 709 µM.
With `T119G` the ABA EC50 was 9.72 µM.
`G102W` has an ABA EC50 of 1.32 µM.
`G81I` gave an ABA EC50 of 129 µM.
`C25N` has an ABA EC50 of 508 µM.
`V44E` has an ABA EC50 of 621 µM.
The ABA EC50 of `F157K` is reported as 4.46 µM.
The ABA EC50 of `L166E` is reported as 2.5 µM.
`L82F` has an ABA EC50 of 0.481 µM.
The ABA EC50 of `V143R` is reported as 118 µM.

Series 3
Target: Histone acetyltransferase KAT6A, winged helix 1, GST fusion (KAT6A, Homo sapiens, UniProt Q92794, residues 1-85)
Technique: protein binding microarray
Form: double-stranded DNA, one strand shown
Sample: in vitro
Concentration: not given
Setting: 8-mer, flanks averaged, mean of 2 arrays, mostly near background
Reference: not given
Reading: higher = stronger binding
Construct (chain): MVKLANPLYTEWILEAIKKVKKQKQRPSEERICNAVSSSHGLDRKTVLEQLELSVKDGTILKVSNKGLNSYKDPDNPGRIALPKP
For `CAAGAGGC`, the E-score was -0.0138.
`CTCCACCC` gave an E-score of -0.0368.
The E-score of `CTCAAGGC` is reported as -0.151.
`AGTACCGG` has an E-score of 0.116.
`GTTTTACA` has an E-score of -0.0741.
`CTCTTAGA` gave an E-score of -0.14.
`GCAGTTGA` gave an E-score of -0.0943.
With `CGGAGTAA` the E-score was 0.0686.
With `CAGGATCG` the E-score was -0.0926.
`CCACGTGC` gave an E-score of 0.0156.
`CTGGCCAG` has an E-score of -0.245.
For `GCATAGTA`, the E-score was 0.0189.
With `ACTTAGAA` the E-score was -0.204.
The E-score of `CAATCGAC` is reported as -0.188.
With `ATACCACG` the E-score was -0.118.
`ACTATAGG` has an E-score of -0.0992.
`GTGGAAGA` has an E-score of -0.192.
`AAAACCAT` gave an E-score of -0.0465.
With `AACCTTGA` the E-score was -0.175.

Mixed results
`PhoQ, residues 284 288 289 292 302 303 SASVAL` gave a fold induction of 3.81 (PhoP, residues 12 14 15 18 19 TQAIL (Escherichia coli, UniProt P23836); Sort-seq, item: YFP reporter; E. coli; PhoQ-PhoP variant library, together with: 10 µM Mg2+; reference: high Mg2+ state, higher = stronger signaling).

Excerpt of the above (series 3):
With `CAGGATCG` the E-score was -0.0926.
`GTGGAAGA` has an E-score of -0.192.
`AAAACCAT` gave an E-score of -0.0465.
`CCACGTGC` gave an E-score of 0.0156.
